Published values gathered from unrelated publications.
Each numbered part is a random draw from the data of one study; scales do not carry over between parts.
UniProt P00519, sequence (whole entry, unmodified, looked up): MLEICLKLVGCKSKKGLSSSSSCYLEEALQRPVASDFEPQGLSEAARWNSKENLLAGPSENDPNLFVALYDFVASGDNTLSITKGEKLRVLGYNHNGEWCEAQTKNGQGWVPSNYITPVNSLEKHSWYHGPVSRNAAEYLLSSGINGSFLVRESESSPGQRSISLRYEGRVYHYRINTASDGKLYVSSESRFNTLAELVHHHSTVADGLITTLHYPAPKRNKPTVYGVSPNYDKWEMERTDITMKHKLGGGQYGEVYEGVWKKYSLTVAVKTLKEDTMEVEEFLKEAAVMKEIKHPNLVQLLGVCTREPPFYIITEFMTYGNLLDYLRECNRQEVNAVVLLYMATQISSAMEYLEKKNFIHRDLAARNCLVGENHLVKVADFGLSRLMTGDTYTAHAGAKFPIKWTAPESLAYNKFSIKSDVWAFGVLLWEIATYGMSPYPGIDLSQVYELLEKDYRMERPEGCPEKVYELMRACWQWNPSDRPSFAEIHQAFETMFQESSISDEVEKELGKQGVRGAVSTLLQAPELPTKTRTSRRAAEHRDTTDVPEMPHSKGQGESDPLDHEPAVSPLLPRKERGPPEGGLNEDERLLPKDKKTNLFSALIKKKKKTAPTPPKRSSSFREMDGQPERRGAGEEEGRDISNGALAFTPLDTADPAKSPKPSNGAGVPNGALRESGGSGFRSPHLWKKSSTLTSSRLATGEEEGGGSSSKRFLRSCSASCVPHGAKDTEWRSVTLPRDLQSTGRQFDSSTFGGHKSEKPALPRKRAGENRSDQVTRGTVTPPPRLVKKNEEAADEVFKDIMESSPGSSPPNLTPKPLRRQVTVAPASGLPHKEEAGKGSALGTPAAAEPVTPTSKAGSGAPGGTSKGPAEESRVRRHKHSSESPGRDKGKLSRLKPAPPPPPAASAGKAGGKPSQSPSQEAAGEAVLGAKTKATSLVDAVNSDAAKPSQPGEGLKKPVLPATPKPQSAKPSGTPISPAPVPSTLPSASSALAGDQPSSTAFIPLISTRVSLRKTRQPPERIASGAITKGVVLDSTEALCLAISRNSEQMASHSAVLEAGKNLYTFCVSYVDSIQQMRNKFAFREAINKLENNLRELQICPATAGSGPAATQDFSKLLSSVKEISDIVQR
UniProt P47898, sequence (whole entry, looked up): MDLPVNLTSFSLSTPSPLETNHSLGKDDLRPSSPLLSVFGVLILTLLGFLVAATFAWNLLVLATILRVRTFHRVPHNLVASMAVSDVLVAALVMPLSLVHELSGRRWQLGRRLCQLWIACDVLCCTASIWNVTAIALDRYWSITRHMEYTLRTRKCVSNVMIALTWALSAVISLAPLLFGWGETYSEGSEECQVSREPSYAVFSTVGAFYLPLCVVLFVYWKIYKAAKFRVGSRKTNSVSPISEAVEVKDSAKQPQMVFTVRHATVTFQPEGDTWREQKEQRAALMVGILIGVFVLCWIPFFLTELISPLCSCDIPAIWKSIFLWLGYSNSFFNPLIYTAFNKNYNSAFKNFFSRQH

Series 1 — host: human; matrix: microsomes or S9; tested at: 2 µM; time: 0.5 h
With `COc1cccc(-c2noc(Cn3cnc4c(nnn4-c4ccc(F)cc4)c3=O)n2)c1` the remaining compound was 92.1%.
With `CCOC(=O)C(C)(C)Cc1nc(-c2ccc(OCc3ccc(OC)cc3)cn2)no1` the remaining compound was 0.995%.
`CC1(c2ccccn2)CCN(C(=O)C(O)c2ccccc2)C1` (stereo not shown) has a remaining compound of 78.7%.
`CN1CC[C@H](Oc2cc(N3Cc4ccccc4C3=O)ccc2Cl)C1` gave a remaining compound of 28.7%.
`Cc1ccccc1N1CCN(C2CCc3occc3C2=O)CC1` (stereo not shown) has a remaining compound of 0.192%.
For `Cc1nc2ccccc2c(=O)n1-c1ccc(Cl)c(O[C@H]2CCN(C)C2)c1`, the remaining compound was 92.5%.
`CN(C)c1nc(N2CCOC3(CCCC3)C2)ncc1F` gave a remaining compound of 1.32%.
The remaining compound of `O=C(Cn1nc2c(cc1=O)CCCC2)Nc1nc(-c2ccc3c(c2)OCO3)cs1` is reported as 68%.
For `COc1cc(S(=O)(=O)N2CCC(C(N)=O)CC2)c(OC)cc1Cl`, the remaining compound was 85.7%.
The remaining compound of `Cc1noc(C)c1S(=O)(=O)N1CCC(OCc2noc(C3CCCO3)n2)CC1` (stereo not shown) is reported as 37.7%.
With `Cc1ccc(-c2nnco2)cc1N1C(=O)NC(C)(c2ccc(S(C)(=O)=O)cc2)C1=O` (stereo not shown) the remaining compound was 89.5%.
The remaining compound of `CC(C)[C@@H](NS(=O)(=O)c1c(N)cc(Cl)cc1Cl)C(=O)NOC(C)(C)C` is reported as 0%.
For `Clc1nc(Cl)n(C23CC4CC(CC(C4)C2)C3)n1`, the remaining compound was 57.5%.
With `COc1cccc(-c2nc3cc(Cl)ccc3c3ccnn23)c1` the remaining compound was 0.329%.

Series 2 — observed: enzyme activity; action: inhibitor; tested at: 0.5 µM; relative to: control
Target: Receptor tyrosine-protein kinase erbB-2 (ERBB2, Homo sapiens, UniProt P04626)
The remaining activity of `FC(F)(F)c1ccc(/C=C/c2nc(COc3ccc(CCCCn4ccnn4)cc3)co2)cc1` is reported as 102%.
The remaining activity of `N#CC(c1ccnc(NCCc2cccnc2)n1)c1nc2ccccc2s1` (stereo not shown) is reported as 104%.
`c1cc(-c2cnn3cc(-c4ccc(OCCN5CCCCC5)cc4)cnc23)ccn1` has a remaining activity of 94.6%.
With `CNc1cc2c(Nc3cccc(Br)c3)ncnc2cn1` the remaining activity was 28.9%.
With `C[C@@H](N)[C@H]1CC[C@H](C(=O)Nc2ccncc2)CC1` the remaining activity was 107%.
For `CC(C)(C)c1nc2c3cc[nH]c(=O)c3c3cc(F)ccc3c2[nH]1`, the remaining activity was 109%.
With `Nc1nc(Nc2ccc(S(N)(=O)=O)cc2)nn1C(=S)Nc1c(F)cccc1F` the remaining activity was 104%.
`O=C1NC(=O)/C(=C/c2ccc3c(c2)OC(F)(F)O3)S1` gave a remaining activity of 102%.
`O=C(c1ccccc1)c1ccc(N2CCOCC2)cc1O` gave a remaining activity of 94.8%.
With `N#C/C(=C(/N)SC1C=CC=CC1)c1cccc(C(O)c2ccncc2)c1` (stereo not shown) the remaining activity was 96.6%.

Series 3 — technique: TR-FRET
Target: UBC/CDC34 (Homo sapiens, UniProt P0CG48+P49427)
UniProt P49427, sequence (whole entry, looked up): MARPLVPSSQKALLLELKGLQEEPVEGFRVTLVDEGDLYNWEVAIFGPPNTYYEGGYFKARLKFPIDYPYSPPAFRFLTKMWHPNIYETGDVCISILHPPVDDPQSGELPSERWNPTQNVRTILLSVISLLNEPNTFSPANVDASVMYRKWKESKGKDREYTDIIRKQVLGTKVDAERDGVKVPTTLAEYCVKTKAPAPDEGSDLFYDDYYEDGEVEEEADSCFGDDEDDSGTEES
`COCC(=O)N1CCC(Cc2ccc(-c3cc(Cl)cc(Cl)c3)cc2)(C(=O)N[C@@H]2CCOC2)CC1` gave an EC50 of > 100 µM.
`CCCCCN1CCC(Cc2ccc(-c3cc(Cl)cc(Cl)c3)cc2)(C(=O)OCC)CC1` has an EC50 of > 100 µM.
For `COCC(=O)N1CCC(Cc2ccc(-c3cc(Cl)cc(Cl)c3)cc2)(C(=O)NC2CCOCC2)CC1`, the EC50 was > 100 µM.
With `CCOC(=O)C1(Cc2ccc(-c3cc(Cl)cc(Cl)c3)cc2)CCN(C(=O)OC)CC1` the EC50 was > 100 µM.
For `CCOC(=O)C1(Cc2ccc(-c3cc(Cl)cc(Cl)c3)cc2)CCN(C(=O)CN(C)C)CC1`, the EC50 was 9.6 µM.
With `COCC(=O)N1CCC(O)(c2ccc(-c3cc(Cl)cc(Cl)c3)cc2)CC1` the EC50 was > 100 µM.
For `COCC(=O)N1CCC(Cc2ccc(-c3cc(Cl)cc(Cl)c3)cc2)(C(=O)NC[C@@H](O)CO)CC1`, the EC50 was > 100 µM.
`COCC(=O)N1CCC(Cc2ccc(-c3cc(Cl)cc(Cl)c3)cc2)(C(=O)NC2COC2)CC1` gave an EC50 of > 100 µM.

Other studies, line by line
For `C[C@@H]1CN(c2cc(-c3n[nH]c4ccc(OC5(C)CC5)cc34)ncn2)C[C@H](C)O1`, the inhibition was -4.76% (5-hydroxytryptamine receptor 5A (HTR5A, Homo sapiens, UniProt P47898); ligand displacement; 10 µM).
`COc1ccc2c(c1)O[C@@H](c1ccc(OC)c(OC)c1)C[C@H]2NC(=O)C1(c2ccc3c(c2)OC(F)(F)O3)CC1` (single isomer, unassigned) has a remaining binding of 100% (Tyrosine-protein kinase ABL1 (ABL1, Homo sapiens, UniProt P00519, F317I); KINOMEscan; 1 µM, F317I mutant, nonphosphorylated; relative to: control).

Some of these lines once more (series 2):
`O=C1NC(=O)/C(=C/c2ccc3c(c2)OC(F)(F)O3)S1` gave a remaining activity of 102%.
`O=C(c1ccccc1)c1ccc(N2CCOCC2)cc1O` gave a remaining activity of 94.8%.
With `N#C/C(=C(/N)SC1C=CC=CC1)c1cccc(C(O)c2ccncc2)c1` (stereo not shown) the remaining activity was 96.6%.
